# Measured values from different studies.
# Lines come from different studies, so protocols differ.
# Cell line: BT-549
Compound,assay,setting,quantity,result
CNS(=O)(=O)Nc1nccc(Cc2c(C)c3ccc(Oc4ncccc4F)cc3oc2=O)c1F,cell viability,7 days,IC50,> 1 µM
CC(C)c1ccc(N(C)c2ccc3c(c2)OCC[C@H]3CNc2cnccc2C(=O)O)cc1,"cell viability, CellTiter-Glo",7 days,IC50,0.00998 µM
"Oc1cccc2c1[nH]c1c(C3=CC4(O)CCC=CCCCCN5CCC3C3(CC6C=CCCCCN6C43)C5)nccc12 (single isomer, unassigned; (+))","cell growth or viability, neutral red",48 h,IC50,0.75 µg/mL
COC(=O)N1c2ccc3c(nc(Cc4ccccc4)n3[C@@H]3CCC[C@@H](C(=O)O)C3)c2CC[C@@H]1C,"cell growth or viability, ATP luminescence",10 days,IC50,2.3 µM
C1=[N+]2CCCC[N+]3=Cc4ccc5[n]4[Au-]23[n]2c1ccc2-c1nc2ccccc2nc1-5.F[P-](F)(F)(F)(F)F,NCI60 five-dose screen,,TGI,5.46 -log M
CCOc1cncc(-c2ccc(NC(=O)C3(c4ccnc(NS(=O)(=O)C5CC5)n4)CCOCC3)nc2)n1,"cell growth or viability, ATP luminescence",72 h,IC50,10 µM
Cc1cc([C@H](C(=O)N2C[C@H](O)C[C@H]2C(=O)N[C@@H](CC(=O)N2CCC(N3CCC(C#Cc4ccc(C(=O)N[C@H]5C(C)(C)[C@H](Oc6ccc(C#N)c(Cl)c6)C5(C)C)cc4)CC3)CC2)c2ccc(-c3scnc3C)cc2)C(C)C)on1,"cell growth or viability, CCK-8",7 days,IC50,0.15 µM
Cc1ccc([N+](=O)[O-])cc1S(=O)(=O)N(C)/N=C/c1cnc2ccc(Br)cn12,cell growth or viability,,IC50,< 0.001 µM
CC1(C)[C@H](NC(=O)c2cnn(CCO)c2)C(C)(C)[C@H]1Oc1ccc(C#N)c(Cl)c1,"cell growth or viability, CCK-8",7 days,IC50,> 10 µM
CN(C)CCN1CCN(c2ccc3nc(-c4ccc5nc(-c6ccc(C(F)(F)F)cc6)[nH]c5c4)[nH]c3c2)CC1,SRB,"10 µM, 48 h",growth percent,86.2%

# Excerpt of the above:
Compound,assay,setting,quantity,result
CC(C)c1ccc(N(C)c2ccc3c(c2)OCC[C@H]3CNc2cnccc2C(=O)O)cc1,"cell viability, CellTiter-Glo",7 days,IC50,0.00998 µM
